Measured values collected from several papers.
A part holds a random share of what one study measured. Positions count from the first letter of the parent shown.

Study 1
Target: CCNE2, cyclin fold, Cln2 fusion (human)
Method: yeast growth competition, sequencing
Sample: yeast
Notes: weak parent motif
Baseline: not given
Direction: higher = stronger binding
Measurement: normalised enrichment score
Starting sequence: PKMYT1 docking peptide (human); SFEPRNLLSLFED; partner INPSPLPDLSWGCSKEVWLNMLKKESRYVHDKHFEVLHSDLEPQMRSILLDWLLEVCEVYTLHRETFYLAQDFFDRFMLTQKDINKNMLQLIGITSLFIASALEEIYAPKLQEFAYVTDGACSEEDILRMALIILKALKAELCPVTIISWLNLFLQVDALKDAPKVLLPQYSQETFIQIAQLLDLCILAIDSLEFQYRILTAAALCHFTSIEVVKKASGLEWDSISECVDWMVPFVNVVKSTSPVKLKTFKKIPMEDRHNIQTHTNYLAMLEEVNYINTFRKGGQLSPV
SFEPRNLLSLFEK [D13K]: 0.236
SFEPRNLLSAFED [L10A]: 0.538
SFEPANALSLFED [R5A L7A]: -0.446
SFYPRNLLSLFED [E3Y]: 0.473
SFEPRNLLWLFED [S9W]: 0.117
SFEPRNLLSLIED [F11I]: 0.291
SFEPRNCLSLFED [L7C]: 0.144
SFKPRNLLSLFED [E3K]: 1.01
VFEPRNLLSLFED [S1V]: 0.474
SFEPRNLLSLFEC [D13C]: 0.534
SFEPRNLLSLFET [D13T]: -0.4
SFEPRNLLSLLED [F11L]: -0.0808
SFEPRNLLSWFED [L10W]: 0.604
SFEPRNLLGLFED [S9G]: -0.145
SFEPRNLISLFED [L8I]: -0.0755
SFEPRELLSLFED [N6E]: -0.328
SFEPRNLLSLRED [F11R]: -0.48
SFAPRNLLSLFED [E3A]: 0.504
WFEPRNLLSLFED [S1W]: 0.574
SFEPRNDLSLFED [L7D]: -0.0587
SFEPRNLLSLWED [F11W]: 0.447
SFEPRNLLSLFWD [E12W]: 0.317
SFEQRNLLSLFED [P4Q]: -0.058

Study 2
Target: Histone acetyltransferase KAT6A, winged helix 1, GST fusion (KAT6A, Homo sapiens, UniProt Q92794, residues 1-85)
Method: protein binding microarray
Molecule type: double-stranded DNA, one strand shown
Sample: in vitro
Concentration: not given
Notes: 8-mer, flanks averaged, mean of 2 arrays, mostly near background
Baseline: not given
Direction: higher = stronger binding
Measurement: E-score
Target sequence (chain): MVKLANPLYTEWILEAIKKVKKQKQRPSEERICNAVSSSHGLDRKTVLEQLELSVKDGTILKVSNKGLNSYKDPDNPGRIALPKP
TTAGCAAA: -0.101
CTACCCCC: -0.152
GCATTTAA: -0.118
GAGTAGAC: -0.00301
ATCTGGAA: -0.16
AATATTGT: -0.0483
GAGTCACA: -0.151
CCAATGGC: -0.0299
CAGACTTC: -0.319
ACATTACG: 0.0583
CGAGGCAA: 0.00705
CGATGTGA: -0.0415
AACAATCG: -0.0499
ACGAAGTC: -0.203
CAGGTGCA: -0.257
ATTCTAAC: -0.217
AGATTTTC: -0.262
ATTCGCAG: -0.00851
ATACGGAA: 0.165
CATAATGG: -0.112
CCAGCTTC: -0.24
ACAAAAAT: -0.188
ACCTTGCC: 0.0672
TCGAGAGA: -0.121
AGTTACGA: -0.151

Study 3
Target: RNA binding protein fox-1 homolog 2, RRM domain, GST-SBP tag (RBFOX2, Homo sapiens, UniProt O43251-10, residues 100-194)
Method: RNA Bind-n-Seq
Molecule type: RNA
Sample: in vitro
Concentration: 365 nM
Notes: natural RNA segment, single round, ends assumed
Baseline: no-protein control
Direction: higher = stronger binding
Measurement: RBNS enrichment (R)
Constant ends, left off below: GGGAGUUCUACAGUCCGACGAUC … UGGAAUUCUCGGGUGCCAA
Target sequence (chain): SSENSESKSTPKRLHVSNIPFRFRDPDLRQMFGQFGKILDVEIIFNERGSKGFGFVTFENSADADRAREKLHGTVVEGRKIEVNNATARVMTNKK
CUCUGAAGUCAUUAACAUUGAAAUCUGCACCAGGAGGCAACAGGGGAAAAAAAAGUUUGAUCUUCUUUUCCAGUAGAGAAUAGUUUGUGAAAUGAUAAGGGCAUUCUAUC: 1.1
AAGAUGAAUACAGCAUCCCGCAGAGGUAGGAUAUGAGGAGGCUAUACUGGAGCGUAGGGAUGAGAUAAAGGGAUGGAUCCGAGUCCUCCCGGGGCCUGCCAAGCUUUUCC: 0.705
GGGCCCAGCCUUUCUGUGGUAUCUGAUGCAGGAAGGACUGCAGUGGAUCAGAACUUACAAACCAAACUUUUAUUCUGAGAAACUGGCUGUACAAUAUCUAAAAAGAAAGU: 0.47
UGUAAUUGAGAGCUCAUUUCAAAAGCAGAAAAAGACAACAAAUAUUAAAGCAAGGAAAAGUGUAACUGAAACACUGCACUUUACUGUUUUAUACUUUUGUACAUAUGAGA: 0.255
AGUUUAAGAGUUCCGAAACUGGAGAGUCGGGCUGAGGAACUGAGUUAGGUUGAACUUGGGAAAGCAAGCCCAAGUUCAACCUAACUCCUGCUGUAAAAUGGAGAGAACUG: 0.885
UUUGAUAUUAUAUCUAGCUAUAAAUAAUACAUGACUAUCGUUUUCUAUUGAAUGUCAAAGACUUACUGGGUCUUUACACCUCUGUAAAGUGGAGGUUUUGGCAAUGAGCU: 0.678
CUAGACUUUGAUUUCCUUAAUAGCCCAUUUCUGUUAACCUCUUAUCACUAAGAAAGAAAGGAAAGAAGGAGAUGAAUAGAAGAAAGAAAAUGGAAAGAAGGAAAAAAGGA: 0.356
GAAUGUAAUUUUCUCAGAAUUUACACUCAUUUGCAGUCAUUUAUUUCAAAAGAUAAAAGAGAAUAAUGGGUUCUUUGUAUUGGCACUUUGCACCAGAAGCAUAUCAUUAU: 0.854
UCCAAGCUAUCAUGCUUAAGCUAUGUCAACAGCAUUUAUUUGUACUAAUGCUAAUAUUUCCAUCAAAAUUUGCCUGUGGAAUAUAUACAGUUCUUAAUUUUAAACUGUCA: 1.19
CAAAAUAAGGUAACUAUUAACUUGAUUAUACUAUAUAAUAUUCUCAAUUACAUUUGAAUUUAAAAAUAUUGAGCUCUUGAUUACAAUUUAAUACAUUGUAAAAAGUAUUA: 0.775
AUUUUUUUCUAACCUUUCAAAAGUUUGAUUCAACCGUCUUACCUUGUAGUGUUAAGAUUCCAUACAGAGAGCCCUGUUAUGCAUACCAGUACUACAAAAUAAAGGGGAAA: 0.388
CACACAGCCCUCUGGGUGCUUGGGAACUAGCUUCAGGCACAGCCUGAUUCUGGUGAUCCAGUGAUCUAUGGAAGUCGUGUCUUACUCCAGGUGAAGGGGGAAAAAAAAAG: 0.51

Study 4
Target: RING finger protein unkempt homolog, zinc fingers 1-6, GST-SBP tag (UNK, Homo sapiens, UniProt Q9C0B0, residues 30-357)
UniProt Q9C0B0, sequence (30-357, looked up): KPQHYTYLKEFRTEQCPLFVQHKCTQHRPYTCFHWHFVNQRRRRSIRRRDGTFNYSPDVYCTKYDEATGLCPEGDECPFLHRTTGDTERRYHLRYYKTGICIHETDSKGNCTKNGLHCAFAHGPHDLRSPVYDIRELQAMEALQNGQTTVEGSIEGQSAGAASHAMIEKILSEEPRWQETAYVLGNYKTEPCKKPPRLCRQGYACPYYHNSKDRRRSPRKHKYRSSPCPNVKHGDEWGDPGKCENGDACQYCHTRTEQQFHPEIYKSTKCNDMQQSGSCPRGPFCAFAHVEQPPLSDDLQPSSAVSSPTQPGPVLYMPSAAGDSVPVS
Method: RNA Bind-n-Seq
Molecule type: RNA
Sample: in vitro
Concentration: not given
Notes: RNA with constant flanks, human and mouse sites, ends assumed
Baseline: input RNA pool
Direction: higher = stronger binding
Measurement: bound/input enrichment
Constant ends, left off below: GGGAGUUCUACAGUCCGACGAUC … CAACAGAGGAUUGAGCAUCA
UCACUUCAAGGGUACCUGAAGCGAAUUGGCACCAAAGCAGCAGCUGUAUUGCCGCAGUUCUAGCUUCACCUUCACGAUGUUUCCCUUGGUCAAAAGCGCACUAAAUCGUCUCCAAGUUCG: 0.102 ratio
GGUGGUACCCUAGACCUGACCUUGAUUCGUGCUCGCCUCCAAGAGAAGCUGUCACCUCCUUAUAGCUCCCCCCAGGAGUUUGCUCAAGAUGUGGGCCGCAUGUUCAAACAGUUCAACAAG: 0.379 ratio
GCGGCCCGCCGCGCUGUCGCUGCAGUCAUGGCUGCUGACGGGGUGGACGAACGUUCGCCUCUGCUGUCAGCAUCCCAUUCGGGAAAUGUCACUCCCACAGCCCCGCCGUACUUGCAGGAA: 0.11 ratio
UCAAGAGAUGAUGGCUUUGUUGUCAGAAUAUUUGCCACAAGCACUGAACCUGUUCUACAGCAAGAAUUGCAACUUAAACUGGCUAGAAAAUGCUUACAUGCCUGUGGUAUCUCACUAUUC: 0.163 ratio
GUGCAUGAGCAUCUGCAUUAGCUCUGAAGACUUCUGCCCUCGGCUCCUCAUACAUUUAAUCACAUUUACACACCAAUUUUAUAAAAAUAGCAGUGUAGAUUCCAAGGGACUCUGAGCCUC: 0.507 ratio
GGUCUUCUUUUUUUUAUGUCGGAAUAUGAAGCAACAAAUUUAUUGAUCCGAGCUCUGUGUCACUUUUAUGAUCAAGAUGAGGAGGAAGGUCUCCAAUCUGAUGGUGUUAUUGAUGAUGCA: 0.823 ratio
CCCAAGGACAGGUGGAAUAAUACCCCCAUGGAUGAAGCACUACACUUUGGACACCAUGAUGUUUUUAAAAUCCUUCAGGAAUACCAAGUUCAGUACACACCUCAAGGGGAUUCUGAUGAU: 0.143 ratio
AUGUAUAAGAAUUUUGUUUAUCUUUUAAGAGUAGUAAAGUACUUUGAGUGUUUGGGGGUUCAACACACACAUGCAAUUUUGCUUAACAAAAGUAUUUUAUAAUACAGUUUCAUACAGAAU: 0.34 ratio
CGCUGGCCCAAGCUGAUGGACUCUGAUGGCCUCCAUCUCUCAGGCACGUGUGCCUUCUCUUAGUCCCUGUUUUCGGGAUGUUAUGAAUCUCAGUACUGUGGUUUGAAAGCACCAGCUUUG: 0.1 ratio
GUAUUAAGUUCCUCUCCUGCUGAUAAAUUGGAUUCUCGAUUUAGGAAGGGAACUUUUGGUACUAGAGAUGCUGAAACAGAUGGACCUGAGAAAGGAGAUCAAAAAGGCAAGGCUUCUCCA: 0.244 ratio
UUGCUGAAAGGAGCUACGCUAAAAAAUACCGAGAAGAUAUAUGGAGUUGCUGUUUACACUGGAAUGGAAACCAAAAUGGCUUUGAACUACCAAGGGAAAUCUCAGAAACGUUCUGCUGUU: 0.158 ratio

Study 5
Target: Sal-like protein 4, full length isoform A (SALL4, Homo sapiens, UniProt Q9UJQ4, residues 1-1053)
UniProt Q9UJQ4, sequence (whole entry, looked up): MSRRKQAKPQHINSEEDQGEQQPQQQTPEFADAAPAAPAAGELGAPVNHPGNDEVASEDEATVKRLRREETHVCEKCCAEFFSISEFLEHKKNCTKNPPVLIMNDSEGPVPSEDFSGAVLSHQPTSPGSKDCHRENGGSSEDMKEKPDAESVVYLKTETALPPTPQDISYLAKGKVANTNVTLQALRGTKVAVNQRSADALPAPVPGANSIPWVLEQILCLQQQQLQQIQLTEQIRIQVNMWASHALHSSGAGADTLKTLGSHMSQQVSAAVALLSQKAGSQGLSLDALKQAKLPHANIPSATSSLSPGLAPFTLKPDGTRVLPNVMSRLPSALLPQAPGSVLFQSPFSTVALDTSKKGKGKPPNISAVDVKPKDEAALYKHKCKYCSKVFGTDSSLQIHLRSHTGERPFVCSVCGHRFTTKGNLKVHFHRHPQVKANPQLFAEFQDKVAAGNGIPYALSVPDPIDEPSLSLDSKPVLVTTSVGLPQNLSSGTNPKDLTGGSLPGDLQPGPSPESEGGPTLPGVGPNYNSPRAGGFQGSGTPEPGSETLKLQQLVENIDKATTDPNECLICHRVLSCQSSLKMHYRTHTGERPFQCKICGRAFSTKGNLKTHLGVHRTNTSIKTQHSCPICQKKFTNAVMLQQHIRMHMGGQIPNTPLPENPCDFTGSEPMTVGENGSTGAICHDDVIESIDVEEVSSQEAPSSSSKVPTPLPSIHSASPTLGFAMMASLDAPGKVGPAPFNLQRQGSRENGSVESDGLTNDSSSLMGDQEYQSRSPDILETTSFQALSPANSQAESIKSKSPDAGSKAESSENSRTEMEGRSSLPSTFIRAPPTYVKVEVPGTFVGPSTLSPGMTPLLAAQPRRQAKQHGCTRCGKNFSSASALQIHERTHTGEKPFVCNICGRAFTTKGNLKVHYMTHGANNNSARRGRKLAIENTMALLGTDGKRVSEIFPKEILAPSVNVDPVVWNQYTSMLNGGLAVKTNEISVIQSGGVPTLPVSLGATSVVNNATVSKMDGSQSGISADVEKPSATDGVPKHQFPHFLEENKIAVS
Method: universal PBM
Molecule type: double-stranded DNA, one strand shown
Sample: in vitro
Concentration: 600 nM
Notes: 8-mer, flanks averaged, mean of replicates
Direction: higher = stronger binding
Measurement: E-score
AAAAGGTA: 0.132
CCGCGAAG: -0.264
AATGCTGG: -0.0585
TAGCCTAA: -0.00219
ATCCCCAT: -0.0769
ATGTTGCC: -0.0649
AAGGTAAG: 0.152
CACTCTCC: 0.0619
GAAGTTGC: -0.224
ATCGTGAA: 0.0889
CTTCAAGC: -0.109
GAGAGTCC: -0.263
AGTCACTA: 0.0472
AACCGTTC: -0.115
ACCGCTCG: -0.168
CCATACGA: 0.0963
GCAATCCA: 0.0505
CATGGCAG: -0.0337
AGTGCTAG: -0.0435
CCATCCAG: -0.118
GCGGGTAA: -0.254
CACAAGCC: -0.2
AGTTCTAT: 0.0903
ATTTGTTG: 0.243
CCTCATCG: -0.0415
